Results of several laboratories.
Each numbered part is a random draw from the data of one study; scales do not carry over between parts.

Set 1
Target: RING finger protein unkempt homolog, zinc fingers 1-6, GST-SBP tag (UNK, Homo sapiens, UniProt Q9C0B0, residues 30-357)
Sequence of UniProt Q9C0B0 (30-357, looked up): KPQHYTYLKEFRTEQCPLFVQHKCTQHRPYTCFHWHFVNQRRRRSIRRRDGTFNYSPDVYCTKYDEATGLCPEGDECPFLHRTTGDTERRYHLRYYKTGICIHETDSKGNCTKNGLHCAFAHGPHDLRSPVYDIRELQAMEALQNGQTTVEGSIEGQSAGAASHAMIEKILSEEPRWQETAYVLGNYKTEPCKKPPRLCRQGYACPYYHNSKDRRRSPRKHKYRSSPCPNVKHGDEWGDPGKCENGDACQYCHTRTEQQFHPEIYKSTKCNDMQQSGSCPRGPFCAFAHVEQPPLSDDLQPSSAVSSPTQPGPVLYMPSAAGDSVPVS
Method: RNA Bind-n-Seq
Molecule type: RNA
Medium: in vitro
Tested at: not given
Notes: RNA with constant flanks, human and mouse sites, ends assumed
Relative to: input RNA pool
Reading: higher = stronger binding
All sequences stand within: GGGAGUUCUACAGUCCGACGAUC … CAACAGAGGAUUGAGCAUCA
`AAACAGAGCCUGGAUGUGCUAGAUCUCUGUGAGGGUGACCUGUCCCCAGGACUCACAGACUCUACGGCCCCCUCCUCAGAGUUGGGCAAGGACGACCUGGAAGAGUUGGCUGCAGCUGCC` gave a bound/input enrichment of 0.128 ratio.
`GACGAGAAGAUGAGCCCAACUAUUGGAAAGCAGCUGCUUAAGGGGUCAGCUGAUCCUCUGAACAGUGCUUUCCAUCUGACCUAUAACAUGGUUUUGAACUUACUAAGAGUAGAAGAAAUU` has a bound/input enrichment of 0.115 ratio.
For `GGGAGCAUUGGUGAAAUAGAAUCCUGCAAACUCGUGAGAGACAAAAUCACAGGACAGAGUUUAGGGUAUGGAUUUGUUAACUAUAUUGAUCCAAAGGAUGCAGAGAAAGCCAUCAACACU`, the bound/input enrichment was 0.112 ratio.
`GGAGGACACACUGAACUGAAGGGGACUUGCGCGGAUGUGGGAGAUGCAAGCCUUCGCUUUAUUUUUUUAUAACUAUCAACUGCCAUCAUGUUUUGUAAUUUGGGGAUCUUGAUUUCACCG` gave a bound/input enrichment of 1.79 ratio.
For `GCUUCAUUCUGCCAUUCACUCACUGCAGCAUAUUCAAGAAUAAAGCAAUAUCGUUUACUACAUUUUUUAUUGAAGGUCAGCCAUGCUUUCUGUAUUAUAUUGCAUAUGAAAUUGUUUACA`, the bound/input enrichment was 0.59 ratio.
`GGUACUAAUGCAUCUGCAUUUGACCAGCUUAUCCUUACAUUGGCAUGGGAUAGAGUUGACAUUGCCAAAAAUCAUGUAUUUGUUUAUGGACAGCAGUGGCUGGUUGGAUCCUUGGAACAA` has a bound/input enrichment of 0.2 ratio.
For `UUUCCACUUGAUGUCAACACGCAGAAGGGGGUGAAAGGGACGCGUGACAGAUUCAGAAAUUAGCACAUUUGUGAAUGCUCGAUGCCCUGUGAGCUUGAGAAGAGGGAUCCAGAGUGGUGA`, the bound/input enrichment was 1.75 ratio.

Set 2
Target: Prothrombin, mature alpha-thrombin (F2, Homo sapiens, UniProt P00734)
Method: aptamer microarray, sandwich
Molecule type: DNA with 2'F-ANA
Medium: in vitro
Tested at: 200 nM
Notes: whole 15-mer aptamer, many near background
With: Cy3 exosite-II aptamer, 400 nM
Reading: higher = stronger binding
Strand: GGTTGGTGTGGTTGG
For `2'F-ANA at 1 2 4 5 7 13 14 15`, “mean fluorescence intensity” read 46.4 a.u.
For `2'F-ANA at 2 3 7 8 9 10 14`, “mean fluorescence intensity” read 560 a.u.
`2'F-ANA at 1 2 3 5 7 10 11 13 14 15` — result for “mean fluorescence intensity”: 47.6 a.u.
`2'F-ANA at 2 3 7 10 11 14`: “mean fluorescence intensity” 292 a.u.
For `2'F-ANA at 2 8 11 12 13 14`, “mean fluorescence intensity” read 176 a.u.
`2'F-ANA at 1 3 4 5 6 8 10 13 14 15` — result for “mean fluorescence intensity”: 67.9 a.u.

Set 3
Target: Centromere-binding protein 1, full length, N-terminal tag (CBF1, Saccharomyces cerevisiae, UniProt P17106, residues 1-351)
Sequence of UniProt P17106 (whole entry, looked up): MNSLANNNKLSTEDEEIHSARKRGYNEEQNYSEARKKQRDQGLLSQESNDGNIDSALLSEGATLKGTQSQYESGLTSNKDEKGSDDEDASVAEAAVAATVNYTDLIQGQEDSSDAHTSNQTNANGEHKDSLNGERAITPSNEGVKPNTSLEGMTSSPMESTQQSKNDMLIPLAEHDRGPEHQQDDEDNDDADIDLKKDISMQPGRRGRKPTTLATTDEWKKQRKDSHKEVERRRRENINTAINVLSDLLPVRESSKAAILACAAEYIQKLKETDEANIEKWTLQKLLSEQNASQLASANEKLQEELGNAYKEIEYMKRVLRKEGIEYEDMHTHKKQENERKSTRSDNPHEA
Method: protein-binding microarray
Molecule type: double-stranded DNA, one strand shown
Medium: in vitro
Tested at: 0.8 µM
Notes: whole 60-bp probe, no competitor
Reading: higher = stronger binding
All sequences stand within: … GTCTTGATTCGCTTGACGCTGCTG
With `CTATTTCCAGTACGTAACACCACGCGGCGCCCCTTC` the fluorescence intensity was 652 a.u.
`GAACCCAAAATGTGTAACATCATCGAGTATAATTAG` gave a fluorescence intensity of 524 a.u.
For `GAAAGTTAAGTACTGCACGTTTCATATCGGAGGTAG`, the fluorescence intensity was 616 a.u.
With `CTAGAATCAGTTTGTCTCCTGAAGGTTTTTTTGTTC` the fluorescence intensity was 512 a.u.
With `GAATATAAATCCCATCTGATGATGATCTGAAAATAG` the fluorescence intensity was 612 a.u.
`CCTAACTACTATAATCATGCGGAATAGCTTCGTACA` gave a fluorescence intensity of 544 a.u.
For `TGTACGAAGCTATTATGCGTGCTTATAGTAGTTAGG`, the fluorescence intensity was 522 a.u.
`CCTAACTACTATAATGATGACATATAGCTTCGTACA` gave a fluorescence intensity of 535 a.u.
The fluorescence intensity of `CTAAGACCCTCCTATCACGCTCATAATATCATGTTC` is reported as 610 a.u.
For `CTATGAACTCCGCGGCTCGTGCTATATTCTTGTTTC`, the fluorescence intensity was 586 a.u.

Single results of other studies
With `PhoQ, residues 284 288 289 292 302 303 SVHLDV` the fold induction was 10.2 (PhoP, residues 12 14 15 18 19 TQALL (Escherichia coli, UniProt P23836); Sort-seq, refers to: YFP reporter; E. coli; PhoQ-PhoP variant library, with: 10 µM Mg2+; relative to: high Mg2+ state, higher = stronger signaling).

For quick reference, copied from above (set 3):
`CCTAACTACTATAATCATGCGGAATAGCTTCGTACA` gave a fluorescence intensity of 544 a.u.
For `TGTACGAAGCTATTATGCGTGCTTATAGTAGTTAGG`, the fluorescence intensity was 522 a.u.
`CCTAACTACTATAATGATGACATATAGCTTCGTACA` gave a fluorescence intensity of 535 a.u.
